Published values collected from several papers.
Each numbered part is a random draw from the data of one study; scales do not carry over between parts. Changes are numbered by the printed parent chain.

Study 1
Target: Centromere-binding protein 1, full length, His-tagged (CBF1, Saccharomyces cerevisiae, UniProt P17106, residues 1-351)
Chain of UniProt P17106 (whole entry, looked up): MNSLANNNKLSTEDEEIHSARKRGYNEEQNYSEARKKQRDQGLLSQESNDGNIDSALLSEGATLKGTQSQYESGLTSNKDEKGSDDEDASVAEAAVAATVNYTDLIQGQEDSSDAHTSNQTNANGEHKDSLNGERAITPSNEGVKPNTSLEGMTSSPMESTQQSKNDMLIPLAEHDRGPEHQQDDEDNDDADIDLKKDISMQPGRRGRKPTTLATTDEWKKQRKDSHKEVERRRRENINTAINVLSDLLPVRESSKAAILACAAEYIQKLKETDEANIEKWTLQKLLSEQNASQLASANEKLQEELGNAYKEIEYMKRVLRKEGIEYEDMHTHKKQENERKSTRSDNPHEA
Technique: competition protein-binding microarray
Molecule type: double-stranded DNA, one strand shown
Matrix: in vitro
Concentration: 2 µM
Setting: whole 60-bp probe, lowest competitor level
Together with: Pho4 competitor, 0.05 µM
Direction: higher = stronger binding
`GGTCAAAAGAGAGGAGATGTGACGGGAGCCAAATTGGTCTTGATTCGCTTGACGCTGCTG` has a fluorescence intensity of 73.2 a.u.
With `CGGGGTTAAGTTTGTCACAAGACTTGCTTGCAGCAGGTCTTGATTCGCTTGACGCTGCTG` the fluorescence intensity was 107 a.u.
`GAAGAAAAACCGATGCACGTGACTCGTTAGTCAAAAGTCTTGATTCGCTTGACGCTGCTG` has a fluorescence intensity of 9360 a.u.
`GCCACATCCTTTACCCACGTGCTTTTTTAGCCAGACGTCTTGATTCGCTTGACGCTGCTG` gave a fluorescence intensity of 1230 a.u.
The fluorescence intensity of `AAATTACTAAGTTTTCACGTGGCCTACCCCGTATGAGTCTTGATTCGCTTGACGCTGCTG` is reported as 1070 a.u.
With `TAACATGCAGTATCGCACGGCGGGCCGAAAGTCGGAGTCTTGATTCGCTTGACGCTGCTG` the fluorescence intensity was 56.2 a.u.
The fluorescence intensity of `AAGATTGGACTTCGGCACGGGCCTCGAACTTTCGTTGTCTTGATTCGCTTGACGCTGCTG` is reported as 80.8 a.u.
`CTTCTGTAAATTTGATTTGTGGGTGGACGCGCCCCGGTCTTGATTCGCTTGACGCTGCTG` gave a fluorescence intensity of 91.6 a.u.
With `CTTGATTCTAAATATCACAGTAGAATAATGGTTTATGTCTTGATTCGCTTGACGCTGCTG` the fluorescence intensity was 85.6 a.u.
For `GGAGCCAACAGCTCAAACGTGCCAGGGACTGGTTACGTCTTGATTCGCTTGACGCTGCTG`, the fluorescence intensity was 77.7 a.u.
For `AATGGAGATATATACTTGATAGCTTTGGATGAATCTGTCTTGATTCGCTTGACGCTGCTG`, the fluorescence intensity was 71.9 a.u.
With `GTAAGTCGTCAAAGGGGCGTGGGTAAGCCATTTCTTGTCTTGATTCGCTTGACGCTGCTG` the fluorescence intensity was 66.9 a.u.
`CTACGCGGGCTATTGCAGGTGAGCAAGACATAGAATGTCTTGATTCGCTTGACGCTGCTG` has a fluorescence intensity of 78.6 a.u.
`TGCAGTTCTTCAGCAAACGTGATGGGCAAAACAACGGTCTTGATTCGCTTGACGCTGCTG` has a fluorescence intensity of 373 a.u.
The fluorescence intensity of `CCCAAACTCCCTTTACACATGCTGCTCCATCGCGGGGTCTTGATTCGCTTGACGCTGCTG` is reported as 78.7 a.u.
The fluorescence intensity of `CTGTTTCCATTTTGCCGCGTGGAGGCATCTGTCCAAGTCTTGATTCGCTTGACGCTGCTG` is reported as 85.2 a.u.
With `CGGTTGAGACTTTAGCACGTGCTTTAGTTTATTTATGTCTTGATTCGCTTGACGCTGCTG` the fluorescence intensity was 3950 a.u.
For `CGTCCTAGTGATTGTCACCGCACTTCCATGAGGAAGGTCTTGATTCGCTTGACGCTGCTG`, the fluorescence intensity was 75.2 a.u.
The fluorescence intensity of `CATACCCAACCTTGGTGGGTGGGTGAAGATATTTGTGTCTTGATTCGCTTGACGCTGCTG` is reported as 52.8 a.u.

Study 2
Target: Interferon regulatory factor 5, full length, phosphomimetic (IRF5, Homo sapiens, UniProt Q13568-2, residues 1-514, S451D/S453D/S456D/S462D)
Technique: protein-binding microarray
Molecule type: double-stranded DNA, one strand shown
Matrix: in vitro
Concentration: 940 nM top
Setting: 60-bp whole probe
Together with: salmon DNA 0.4 mg/ml
Baseline: random background probes
Direction: higher = stronger binding
Shared flanks, not repeated: GCCTAGCAC … GTCTTGATTCGCTTGACGCTGCTG
`TCATGTCCCCCTTTTATACTGTGCTAG`: “fitted relative affinity” 0.435 z-score.
Under “fitted relative affinity”, `GACGATTTCTGGACTGGAGACGTGCTA` is recorded as 0.196 z-score.
For `TTAGGTATCCTTTTCCTCTAGTGCTAG`, “fitted relative affinity” read 0.785 z-score.
`TTAGGTTTCGGCACTGGGTTAGTGCTA` — result for “fitted relative affinity”: 8.57 z-score.
Under “fitted relative affinity”, `GACGAGCTGGGGTATCGAGACGTGCTA` is recorded as 1.11 z-score.
Under “fitted relative affinity”, `GGGTTCAAGAAGTAGGAGAAGTGCTAG` is recorded as -0.375 z-score.
`TCAAATTTGCTTTAGTCACTGTGCTAG` — result for “fitted relative affinity”: -0.0235 z-score.
`GACGGTTTCCTTATCATGACGTGCTAG`: “fitted relative affinity” 1.67 z-score.
`TCATGGATATATATCATACTGTGCTAG` — result for “fitted relative affinity”: -0.279 z-score.
`TTAGATCTCAGTCTCGAGTAGTGCTAG` — result for “fitted relative affinity”: 1.38 z-score.
`AGTGTCATGTTTCTATGGGCGTGCTAG` — result for “fitted relative affinity”: 1.04 z-score.
`TTCAATTTTTGCATCGTAAGGTGCTAG` — result for “fitted relative affinity”: 0.346 z-score.
`GATGGTTTCCTTATCCTGACGTGCTAG`: “fitted relative affinity” 2.12 z-score.
Under “fitted relative affinity”, `GACGGCCTGGGTATCGGGACGTGCTAG` is recorded as 0.513 z-score.
`TTAGCTATCGGGACTGGATTAGTGCTA` — result for “fitted relative affinity”: 0.0186 z-score.
Under “fitted relative affinity”, `TTAGGTTTCGACTTACGGTTAGTGCTA` is recorded as 9.77 z-score.
Under “fitted relative affinity”, `GCCGGACTGGGTATCGGGACGTGCTAG` is recorded as 0.941 z-score.
For `TTATGTCTGGGTATTTTTTCGTGCTAG`, “fitted relative affinity” read 0.605 z-score.
For `TTAGGTCTCCTATTGCTTTAGTGCTAG`, “fitted relative affinity” read -0.087 z-score.

Study 3
Target: CCNE2, cyclin fold, Cln2 fusion (human)
Technique: yeast growth competition, sequencing
Matrix: yeast
Setting: strong parent motif
Baseline: not given
Direction: higher = stronger binding
Starting sequence: E2F3 docking peptide (human); PPAKRRLELGESG; partner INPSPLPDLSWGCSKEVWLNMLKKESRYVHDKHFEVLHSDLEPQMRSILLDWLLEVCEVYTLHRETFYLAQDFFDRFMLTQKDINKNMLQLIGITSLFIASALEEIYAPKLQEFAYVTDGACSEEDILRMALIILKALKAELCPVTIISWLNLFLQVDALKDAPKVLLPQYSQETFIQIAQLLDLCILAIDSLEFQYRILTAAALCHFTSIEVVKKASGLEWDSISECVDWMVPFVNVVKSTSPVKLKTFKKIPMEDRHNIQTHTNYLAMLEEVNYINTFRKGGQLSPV
For `R5A L7A`, “normalised enrichment score” read 0.0337.
`S12A` — result for “normalised enrichment score”: 1.01.
`L7A`: “normalised enrichment score” 0.399.
For `R5K`, “normalised enrichment score” read -0.171.
For `R5K L9F`, “normalised enrichment score” read 1.55.
`G13A`: “normalised enrichment score” 0.793.
`E8A`: “normalised enrichment score” 0.51.
Under “normalised enrichment score”, `G10A` is recorded as 1.26.
For `R5A`, “normalised enrichment score” read -0.196.

Study 4
Target: ABI1, truncated, D143A, DHFR fusion (Arabidopsis thaliana)
Technique: DHFR PCA, deep sequencing
Matrix: yeast
Setting: methotrexate growth selection, single substitutions
Together with: (+)-ABA 0.032 µM
Baseline: wild-type fitted maximum
Direction: higher = stronger binding
Starting sequence: PYL1, truncated, DHFR fusion (Arabidopsis thaliana); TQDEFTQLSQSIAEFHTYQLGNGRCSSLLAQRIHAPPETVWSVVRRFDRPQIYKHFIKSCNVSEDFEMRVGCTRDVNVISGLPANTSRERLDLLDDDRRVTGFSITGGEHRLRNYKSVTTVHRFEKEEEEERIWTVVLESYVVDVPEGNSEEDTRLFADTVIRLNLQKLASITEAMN
`L138D` — result for “relative binding score”: 2.42%.
`F5S` — result for “relative binding score”: 3.53%.
For `E131D`, “relative binding score” read 45.3%.
For `T173W`, “relative binding score” read -5.98%.
`D144E`: “relative binding score” 2.27%.
`F103S`: “relative binding score” -1.98%.
Under “relative binding score”, `S59Q` is recorded as -2.08%.
For `E67T`, “relative binding score” read 21.1%.
Under “relative binding score”, `F103W` is recorded as -2.76%.
Under “relative binding score”, `V78S` is recorded as 9.63%.
`L20W`: “relative binding score” 3.18%.

For quick reference, copied from above (study 2):
`TCATGGATATATATCATACTGTGCTAG` — result for “fitted relative affinity”: -0.279 z-score.
Under “fitted relative affinity”, `TTAGGTTTCGACTTACGGTTAGTGCTA` is recorded as 9.77 z-score.
Under “fitted relative affinity”, `GGGTTCAAGAAGTAGGAGAAGTGCTAG` is recorded as -0.375 z-score.
`TCAAATTTGCTTTAGTCACTGTGCTAG` — result for “fitted relative affinity”: -0.0235 z-score.
`TTAGGTTTCGGCACTGGGTTAGTGCTA` — result for “fitted relative affinity”: 8.57 z-score.
Under “fitted relative affinity”, `GCCGGACTGGGTATCGGGACGTGCTAG` is recorded as 0.941 z-score.
